Assay results collected from several papers.
A part holds a random share of what one study measured. Substitutions count along the parent as printed.

Study 1
Target: DBP, bZIP domain (human)
Technique: DHFR protein complementation
Sample: yeast
Notes: single substitutions, most at no-binding floor
Baseline: wild-type JUN-FOS pair
Direction: higher = stronger binding
Measurement: binding fitness
Starting sequence: JUN, bZIP domain (human); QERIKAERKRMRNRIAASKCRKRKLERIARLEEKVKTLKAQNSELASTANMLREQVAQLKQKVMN; partner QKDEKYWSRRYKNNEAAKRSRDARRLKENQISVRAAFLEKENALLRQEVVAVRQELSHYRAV
T37D: -1.41 natural log
L38D: -1.46 natural log
T37E: -1.44 natural log
S47N: -1.49 natural log
L52N: -1.51 natural log
L38F: -1.49 natural log
L38W: -1.36 natural log
T48K: -1.29 natural log
A40H: -1.54 natural log
E32Y: -1.3 natural log
S43W: -1.12 natural log
E33G: -1.47 natural log
A57W: -1.51 natural log
T48Q: -1.23 natural log
N42E: -1.49 natural log
K34L: -1.37 natural log

Study 2
Sequence: SFLIEYEFLIPPSLKP
Molecule type: peptide
Direction: direction not given
Measurement: enrichment score
Saccharomyces cerevisiae; cell growth, competitive growth deep sequencing; peptide tiling library, with: cyclin E2-Cln2 fusion: 0.256
Saccharomyces cerevisiae; binding, competitive growth deep sequencing; cyclin E1-Cln2 fusion strain; peptide tiling library: 2.04
Saccharomyces cerevisiae; cell growth, competitive growth deep sequencing; peptide tiling library, with: cyclin F-Cln2 fusion: 0.448
Cln2 (Saccharomyces cerevisiae); peptide binding, competitive growth sequencing; Saccharomyces cerevisiae, unfused Cln2 strain; peptide tiling library: 0.408
Saccharomyces cerevisiae; binding, yeast competitive growth sequencing; cyclin B3-Cln2 fusion strain; peptide tiling library: 1.32
Saccharomyces cerevisiae; binding, yeast competitive growth sequencing; cyclin D1-Cln2 strain, peptide tiling library; pooled screen: 1.3
human cyclin A2; competitive growth deep sequencing; Saccharomyces cerevisiae, cyclin A2-Cln2 fusion strain; peptide tiling library: 0.638
Saccharomyces cerevisiae; binding, yeast competitive growth sequencing; cyclin B2-Cln2 chimera: 0.243

Study 3
Target: Interferon regulatory factor 7, full length, phosphomimetic (IRF7, Homo sapiens, UniProt Q92985, residues 1-503, S471D/S472D/S475D/S476D/S477D/S483D/S484D/S487D)
Technique: protein-binding microarray
Molecule type: double-stranded DNA, one strand shown
Sample: in vitro
Concentration: 2200 nM top
Notes: 60-bp whole probe
With: salmon DNA 0.4 mg/ml
Baseline: random background probes
Direction: higher = stronger binding
Measurement: fitted relative affinity
Shared flanks, not repeated: GCCTAGCAC … GTCTTGATTCGCTTGACGCTGCTG
Construct (chain): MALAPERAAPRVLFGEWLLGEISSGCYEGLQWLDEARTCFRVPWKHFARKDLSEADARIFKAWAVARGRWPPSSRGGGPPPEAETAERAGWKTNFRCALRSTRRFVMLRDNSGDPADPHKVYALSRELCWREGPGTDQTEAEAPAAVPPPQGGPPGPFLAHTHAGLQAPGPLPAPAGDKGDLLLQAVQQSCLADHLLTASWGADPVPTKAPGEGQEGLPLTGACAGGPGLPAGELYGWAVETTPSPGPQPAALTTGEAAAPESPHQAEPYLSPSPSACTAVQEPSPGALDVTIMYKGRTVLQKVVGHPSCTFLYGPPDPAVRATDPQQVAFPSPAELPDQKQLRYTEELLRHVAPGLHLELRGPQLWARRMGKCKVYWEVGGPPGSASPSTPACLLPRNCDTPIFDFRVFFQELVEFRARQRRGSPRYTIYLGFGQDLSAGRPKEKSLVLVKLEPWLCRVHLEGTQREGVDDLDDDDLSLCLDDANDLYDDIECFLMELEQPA
GACGGTTTCGGTTTCGTGACGTGCTAG: 13.5 z-score
TCATGTTTCTAATATTCTACTGTGCTA: 1.53 z-score
TTAGGACTGGGGTATCGGATAGTGCTA: -0.569 z-score
CTAGAACTGGGGTATCGATTAGTGCTA: 0.0646 z-score
GACGGTATCGGTTTCGTGACGTGCTAG: 2.75 z-score
GACGGACTGGTCTATCGGGACGTGCTA: -0.911 z-score
GACGAACTGGGGTATGGAGACGTGCTA: 0.115 z-score
TTAGGTATCGGGACTGGGCTAGTGCTA: -0.592 z-score
TCAAGTTTCACTTTCCAACTGTGCTAG: 9.01 z-score
TAAGAACTGAGACTGGATTAGTGCTAG: -0.784 z-score
TTAGAGCTGAGTTTCGATTAGTGCTAG: 3.46 z-score
TTAGGTTTCCTTTCACTTTAGTGCTAG: 5.54 z-score
ACCCTTGAGTGGTCCAGAGTGTGCTAG: 0.0701 z-score
TTAGAACTGGGTCTCGGTTAGTGCTAG: 0.179 z-score
GACGATATCAGTATCGGGACGTGCTAG: 0.294 z-score
TTAGGACTGCTTCTCGTTTAGTGCTAG: 0.816 z-score
GACGATTTCAGGATCGAGACGTGCTAG: 0.729 z-score
TTAGGTATCCTACTGCTTTAGTGCTAG: 0.63 z-score
AAGTTTTTATTTTCTGAATGGTGCTAG: 3.2 z-score
GACGGACTGGACACTGGGCACGTGCTA: -0.897 z-score
TTTGCTCTGTGCATAGTTCTGTGCTAG: 0.922 z-score
CTAGTAGCCTAAGGCTACCGGTGCTAG: -0.335 z-score
GACGGTATCGAATATCGGGACGTGCTA: -0.052 z-score
CAGAAAATGGAAACTCGTATGGTGCTA: 0.693 z-score
GACGATTTCAGACTGGAAACGTGCTAG: 0.306 z-score

Study 4
Target: ABI1, truncated, D143A, DHFR fusion (Arabidopsis thaliana)
Technique: DHFR PCA, deep sequencing
Sample: yeast
Notes: methotrexate growth selection, single substitutions
With: (+)-ABA 710 µM
Baseline: wild-type fitted maximum
Direction: higher = stronger binding
Measurement: relative binding score
Starting sequence: PYL1, truncated, DHFR fusion (Arabidopsis thaliana); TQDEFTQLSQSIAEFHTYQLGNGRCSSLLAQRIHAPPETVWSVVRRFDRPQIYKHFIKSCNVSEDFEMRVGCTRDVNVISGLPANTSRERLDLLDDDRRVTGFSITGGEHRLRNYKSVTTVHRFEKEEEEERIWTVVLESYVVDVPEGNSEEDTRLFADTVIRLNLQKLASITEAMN
T17K: 109%
E14W: 82.4%
N85F: 96.3%
W41F: 67.2%
S27E: 83.4%
R132F: 108%
H110D: 7.18%
Y53M: 75.6%
I57C: 91%
V118E: 14.1%
D65G: 101%
S11P: 114%
L91T: 8.06%
I162E: 9.72%
G81A: 76%
F124S: 100%

Study 5
Target: Histone acetyltransferase KAT6A, winged helix 2, GST fusion (KAT6A, Homo sapiens, UniProt Q92794, residues 85-181)
Technique: protein binding microarray
Molecule type: double-stranded DNA, one strand shown
Sample: in vitro
Concentration: not given
Notes: 8-mer, flanks averaged, mean of 2 arrays, mostly near background
Baseline: not given
Direction: higher = stronger binding
Measurement: E-score
Construct (chain): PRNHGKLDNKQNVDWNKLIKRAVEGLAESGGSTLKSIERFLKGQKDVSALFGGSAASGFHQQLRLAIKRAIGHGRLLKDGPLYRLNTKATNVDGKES
CCCCAGGA: -0.107
CAAGTAGA: -0.0493
ACGCCACC: -0.176
AAAATCCT: 0.0523
GACATCTC: -0.14
ATGTGAGA: -0.137
CTTCTCGC: -0.0788
CCTGGCCA: -0.0698
ACTTCGGG: 0.0867
CTGACGAC: 0.0174
ACCCTTGC: -0.0847
ACTGAAAC: 0.0677
CCCATAGG: 0.0396
AACACGAT: 0.0617
CTAGAGGC: -0.239
CGAGTTAG: 0.00366
CTCAAGAC: -0.016
GGAAACCC: 0.162
GACTCTTA: -0.129
TAGGACGA: -0.204
CCGTAAAG: -0.0616
CGTCTGTC: 0.0187
ATAGCCGG: 0.15
CTGCGGAC: 0.178
AGCAGTAT: 0.0584

Study 6
Target: RNA binding protein fox-1 homolog 2, RRM domain, GST-SBP tag (RBFOX2, Homo sapiens, UniProt O43251-10, residues 100-194)
Technique: RNA Bind-n-Seq
Molecule type: RNA
Sample: in vitro
Concentration: 365 nM
Notes: natural RNA segment, single round, ends assumed
Baseline: no-protein control
Direction: higher = stronger binding
Measurement: RBNS enrichment (R)
Shared flanks, not repeated: GGGAGUUCUACAGUCCGACGAUC … UGGAAUUCUCGGGUGCCAA
Residues (chain): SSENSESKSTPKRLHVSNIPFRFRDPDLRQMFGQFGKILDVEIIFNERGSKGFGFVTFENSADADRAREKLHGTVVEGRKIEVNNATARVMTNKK
CUGCAAAGCUUCUCUCAAGUUCCUUAAUCCUUGAGAAUCUUAAGAGGCUUGCUGGCUGGUGAAAAAGAAAUACAUCCCUCCCUCCAUCACCAUGUGGGGAUGCAGGAAAU: 0.207
GUGCUAUUGCAGACAUGGCUGCAGUACUGUACCUUAUCAUUCUGAUGAAACUGAUUUGGAGCACCCUUUUCUUUAUCGCUACAUUUAUUUAGGGGACAAACUCCAUCCAG: 0.585
CACCUCAGAAACUUCCACCCUCAUGACUGGAAUGGAAGAGGGGACCGAGAGCCUCACAAUCUCGGAGAGGGAGGAGAAAUUCUUAAAAACAGCUGCUCUCCUGCGCCCAG: 0.397
GGUAGGCCUUGGAGGGAAAUCUGUAGGGGUGGGGACCUUCCUACCUUCCUGGCUUGAGAACAGCCCUGCUACCCUUUUUGAGCCGAAAUUUUGAAGUGGAUGCCCGUCUU: 2.05
AGGGCUACCACAUUGACCCAGAUGGUAUCUCCUCUCACCAUUCAGACAUCCAUAAGGAAUGCCAAAUGCUGUAUUGAAUAGUUCUCCUGUGUGACUUUCUAGAGAAGCCA: 0.569
AAUAAACUCCAGAUCUGAAAUUCAGUAUUUUAGAAAAAUGCCAGCUCUUCUUACUGUAUUUAUUAAAACUUGUAAUAAUGUGAUUUUUUUCAAGGAUAUUAGUUCAAAUU: 0.948
ACAGUUCAAAAAGUUCAUUUAUAAAAGUAGUUUCCUGUUCCUAGUGUGAUGUAUCACAAAUUGUGCUGAGGUUAUUUUAGUAUGUGUGUUUCAUUCCCGUGCUUCUGUUC: 0.689
AGUGCCCUCAGCUAGGGCACUAGCCCAGCACACCUCUUCUCGGCCCACCUGAGGCCCAGCCAUCGGGCCUGCCUGGGCCCGGGCCCAGCAGUGCUGGACUGAUUCUCCCA: 0.271
UAAUCUCAACUAAAGAUAUAGUUCUGUGGUAGCCAUUGUUUUACAAUGAAAUAACUGCAACUAGAGAAAAAAAACUGUAUAAAAACAUUAAAUUGUCAGUAUUUUUGUAA: 0.5
AAAUUUUAAAGAGAUACUGGUAUUUUGAAAAUGCAACCUAUAUAUAUUCUUAAUAUCCUUUUAAGAAUAUGGAGAUGAAGAUUGUUUUCUCCAAUUUUCUGUGCCAUUUU: 3.15
UGGAAUCAUGUGUCUGCCCUGUGUAUUGCAGUUUGUAUUGCCACAAGCUAUAUUUAUACCAGUGUCACCCUUUUCUUGUAGAAUAUACUAAUAAUCUGUGCCAACUCUAC: 0.383
UAUUGCAUGUCUAAAAGCUAGUGCCCUGAGUACUCAUGAAUUCGAUUCCAAGAGUAGUGGUGUAAAUUGCCUUGGAGCCCUGCAUCCACGUCUUGUAACUAACUUUUGAA: 10.3

Repeated from above (study 4):
D65G: 101%
E14W: 82.4%
F124S: 100%
W41F: 67.2%
T17K: 109%
R132F: 108%
L91T: 8.06%
I162E: 9.72%
G81A: 76%
V118E: 14.1%
Y53M: 75.6%
